Results from different studies.
Protocols differ between the studies behind these lines. ± gives the spread as reported.
CYP2B6: Cytochrome P450 2B6 (CYP2B6, Homo sapiens, UniProt P20813)
Sequence of UniProt P20813 (whole entry, looked up): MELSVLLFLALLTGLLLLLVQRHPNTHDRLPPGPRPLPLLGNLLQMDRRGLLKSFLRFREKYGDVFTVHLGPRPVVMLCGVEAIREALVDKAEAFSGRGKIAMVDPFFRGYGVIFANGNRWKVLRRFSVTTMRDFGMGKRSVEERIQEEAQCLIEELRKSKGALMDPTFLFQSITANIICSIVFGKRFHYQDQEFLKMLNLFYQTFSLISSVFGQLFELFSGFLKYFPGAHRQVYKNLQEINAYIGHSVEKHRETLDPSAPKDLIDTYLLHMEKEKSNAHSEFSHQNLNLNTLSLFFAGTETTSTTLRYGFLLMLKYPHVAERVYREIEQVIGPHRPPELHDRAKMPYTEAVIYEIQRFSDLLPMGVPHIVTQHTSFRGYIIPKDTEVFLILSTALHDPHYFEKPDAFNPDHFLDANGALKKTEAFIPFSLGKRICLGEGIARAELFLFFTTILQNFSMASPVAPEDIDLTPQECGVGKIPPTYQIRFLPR
Broad substrate specificity ATP-binding cassette transporter ABCG2: Broad substrate specificity ATP-binding cassette transporter ABCG2 (Mus musculus, UniProt Q7TMS5)
Sequence of UniProt Q7TMS5 (whole entry, looked up): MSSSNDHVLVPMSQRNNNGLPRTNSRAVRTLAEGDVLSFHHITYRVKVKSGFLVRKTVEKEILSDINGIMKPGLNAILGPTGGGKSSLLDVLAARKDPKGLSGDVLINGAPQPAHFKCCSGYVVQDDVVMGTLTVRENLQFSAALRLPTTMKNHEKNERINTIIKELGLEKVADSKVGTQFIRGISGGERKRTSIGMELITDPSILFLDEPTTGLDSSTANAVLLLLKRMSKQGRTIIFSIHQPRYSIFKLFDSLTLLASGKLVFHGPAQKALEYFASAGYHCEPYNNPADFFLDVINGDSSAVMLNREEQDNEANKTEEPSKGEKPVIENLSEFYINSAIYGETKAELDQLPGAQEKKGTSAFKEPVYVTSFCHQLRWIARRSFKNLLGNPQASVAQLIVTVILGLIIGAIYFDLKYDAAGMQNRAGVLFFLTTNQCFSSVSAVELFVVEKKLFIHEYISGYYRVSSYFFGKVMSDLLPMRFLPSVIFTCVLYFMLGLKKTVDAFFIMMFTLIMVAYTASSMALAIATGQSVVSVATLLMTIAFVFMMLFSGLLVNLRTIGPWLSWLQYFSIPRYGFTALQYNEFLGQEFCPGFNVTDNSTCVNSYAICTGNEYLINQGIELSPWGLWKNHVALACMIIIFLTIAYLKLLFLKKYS
B1: UGT1A9 (Homo sapiens, UniProt O60656); chain GKLLVVPMDGSHWFTMRSVVEKLILRGHEVVVVMPEVSWQLGRSLNCTVKTYSTSYTLEDLDREFKAFAHAQWKAQVRSIYSLLMGSYNDIFDLFFSNCRSLFKDKKLVEYLKESSFDAVFLDPFDNCGLIVAKYFSLPSVVFARGILCHYLEEGAQCPAPLSYVPRILLGFSDAMTFKERVRNHIMHLEEHLLCHRFFKNALEIASEILQTPVTEYDLYSHTSIWLLRTDFVLDYPKPVMPNMIFIGGINCHQGKPLPMEFEAYINASGEHGIVVFSLGSMVSEIPEKKAMAIADALGKIPQTVLWRYTGTRPSNLANNTILVKWLPQNDLLGHPMTRAFITHAGSHGVYESICNGVPMVMMPLFGDQMDNAKRMETKGAGVTLNVLEMTSEDLENALKAVINDKSYKENIMRLSSLHKDRPVEPLDLAVFWVEFVMRHKGAPHLRPAAHDLTWYQYHSLDVIGFLLAVVLTVAFITFKCCAYGYRKCLGKKGRVKKAHKSKTH
Sequence of UniProt P05177 (whole entry, looked up): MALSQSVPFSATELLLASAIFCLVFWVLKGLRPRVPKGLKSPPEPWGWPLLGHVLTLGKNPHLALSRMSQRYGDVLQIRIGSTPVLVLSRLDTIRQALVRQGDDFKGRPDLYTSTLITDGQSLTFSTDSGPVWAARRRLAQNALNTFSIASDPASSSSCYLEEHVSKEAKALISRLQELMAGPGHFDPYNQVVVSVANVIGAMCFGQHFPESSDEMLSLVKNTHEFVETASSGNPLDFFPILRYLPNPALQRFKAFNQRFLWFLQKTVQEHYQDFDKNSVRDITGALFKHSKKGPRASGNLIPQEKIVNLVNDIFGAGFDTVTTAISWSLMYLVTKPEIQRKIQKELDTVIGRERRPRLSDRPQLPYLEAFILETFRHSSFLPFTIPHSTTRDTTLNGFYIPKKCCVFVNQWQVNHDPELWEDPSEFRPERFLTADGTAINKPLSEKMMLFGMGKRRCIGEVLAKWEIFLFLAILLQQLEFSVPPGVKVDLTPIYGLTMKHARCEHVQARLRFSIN
Sequence of UniProt Q92887 (whole entry, looked up): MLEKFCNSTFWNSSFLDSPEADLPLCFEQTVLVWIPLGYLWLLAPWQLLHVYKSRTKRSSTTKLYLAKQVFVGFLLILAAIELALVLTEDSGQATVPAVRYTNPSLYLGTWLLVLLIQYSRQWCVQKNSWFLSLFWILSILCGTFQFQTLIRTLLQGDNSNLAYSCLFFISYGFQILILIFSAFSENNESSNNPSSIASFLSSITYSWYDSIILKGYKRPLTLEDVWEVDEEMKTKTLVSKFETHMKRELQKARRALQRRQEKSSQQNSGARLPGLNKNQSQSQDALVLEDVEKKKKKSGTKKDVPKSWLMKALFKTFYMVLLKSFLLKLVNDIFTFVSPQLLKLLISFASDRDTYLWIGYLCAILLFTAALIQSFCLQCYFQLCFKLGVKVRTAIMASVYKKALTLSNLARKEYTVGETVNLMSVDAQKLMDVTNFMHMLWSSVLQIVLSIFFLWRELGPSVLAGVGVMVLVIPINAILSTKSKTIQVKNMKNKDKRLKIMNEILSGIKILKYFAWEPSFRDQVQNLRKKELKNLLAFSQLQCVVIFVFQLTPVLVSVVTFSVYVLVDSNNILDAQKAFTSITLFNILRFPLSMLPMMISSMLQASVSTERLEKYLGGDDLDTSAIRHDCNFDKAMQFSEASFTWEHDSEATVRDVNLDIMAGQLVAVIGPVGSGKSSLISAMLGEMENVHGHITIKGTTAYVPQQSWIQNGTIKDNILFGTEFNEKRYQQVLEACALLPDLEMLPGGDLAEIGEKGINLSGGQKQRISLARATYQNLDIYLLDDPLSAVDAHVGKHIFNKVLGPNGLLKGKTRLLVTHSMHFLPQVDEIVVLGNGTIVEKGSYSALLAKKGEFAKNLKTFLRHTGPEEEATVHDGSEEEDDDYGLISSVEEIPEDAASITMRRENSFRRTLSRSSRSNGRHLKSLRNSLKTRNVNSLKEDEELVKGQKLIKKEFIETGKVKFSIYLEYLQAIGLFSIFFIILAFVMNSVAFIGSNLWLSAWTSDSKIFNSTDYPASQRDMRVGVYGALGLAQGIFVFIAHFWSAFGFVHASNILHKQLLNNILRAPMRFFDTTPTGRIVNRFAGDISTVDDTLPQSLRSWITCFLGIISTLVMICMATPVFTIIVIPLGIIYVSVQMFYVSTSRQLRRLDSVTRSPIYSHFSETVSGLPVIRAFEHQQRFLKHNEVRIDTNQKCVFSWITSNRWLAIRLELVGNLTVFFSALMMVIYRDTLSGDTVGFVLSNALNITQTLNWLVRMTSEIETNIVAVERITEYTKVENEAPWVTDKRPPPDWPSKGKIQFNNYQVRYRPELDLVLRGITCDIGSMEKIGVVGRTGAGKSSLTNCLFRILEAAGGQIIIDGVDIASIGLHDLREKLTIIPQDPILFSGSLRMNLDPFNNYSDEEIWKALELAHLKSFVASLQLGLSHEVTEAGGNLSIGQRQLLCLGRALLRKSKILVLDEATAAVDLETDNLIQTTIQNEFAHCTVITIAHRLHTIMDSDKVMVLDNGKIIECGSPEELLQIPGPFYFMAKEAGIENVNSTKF
Sequence of UniProt P00761 (whole entry, looked up): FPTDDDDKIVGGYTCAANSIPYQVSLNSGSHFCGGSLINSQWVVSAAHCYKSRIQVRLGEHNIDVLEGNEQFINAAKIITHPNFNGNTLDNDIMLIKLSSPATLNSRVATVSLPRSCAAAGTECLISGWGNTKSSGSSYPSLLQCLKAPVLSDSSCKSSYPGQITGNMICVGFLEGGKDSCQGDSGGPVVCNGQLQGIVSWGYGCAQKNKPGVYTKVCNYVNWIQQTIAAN
Sequence of UniProt P11509 (whole entry, looked up): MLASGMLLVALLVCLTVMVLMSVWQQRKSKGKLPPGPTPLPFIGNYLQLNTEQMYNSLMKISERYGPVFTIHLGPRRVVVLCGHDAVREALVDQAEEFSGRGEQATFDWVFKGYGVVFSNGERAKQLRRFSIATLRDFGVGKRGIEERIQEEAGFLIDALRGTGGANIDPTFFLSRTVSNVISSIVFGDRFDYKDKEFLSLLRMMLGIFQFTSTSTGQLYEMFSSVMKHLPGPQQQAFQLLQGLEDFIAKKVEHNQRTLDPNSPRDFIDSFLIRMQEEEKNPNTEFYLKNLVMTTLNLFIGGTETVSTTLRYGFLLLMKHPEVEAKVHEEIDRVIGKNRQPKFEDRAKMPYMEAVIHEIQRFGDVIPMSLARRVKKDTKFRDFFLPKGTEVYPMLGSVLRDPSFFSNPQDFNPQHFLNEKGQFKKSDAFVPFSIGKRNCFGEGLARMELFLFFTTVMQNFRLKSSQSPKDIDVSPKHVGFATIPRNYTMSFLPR
Sequence of UniProt P08682 (whole entry, looked up): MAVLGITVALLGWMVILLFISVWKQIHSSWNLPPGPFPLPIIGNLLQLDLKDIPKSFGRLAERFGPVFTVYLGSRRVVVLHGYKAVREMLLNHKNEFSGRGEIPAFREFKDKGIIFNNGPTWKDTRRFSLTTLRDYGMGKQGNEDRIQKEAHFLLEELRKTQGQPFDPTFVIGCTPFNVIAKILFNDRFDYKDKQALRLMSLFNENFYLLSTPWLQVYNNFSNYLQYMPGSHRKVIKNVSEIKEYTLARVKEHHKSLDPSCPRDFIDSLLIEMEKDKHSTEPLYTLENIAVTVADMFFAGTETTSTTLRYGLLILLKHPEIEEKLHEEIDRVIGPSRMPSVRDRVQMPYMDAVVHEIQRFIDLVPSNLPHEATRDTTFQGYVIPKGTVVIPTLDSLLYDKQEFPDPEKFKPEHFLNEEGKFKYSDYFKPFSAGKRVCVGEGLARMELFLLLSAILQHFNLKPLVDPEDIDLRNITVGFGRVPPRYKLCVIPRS

| Molecule | tested on | assay | system | conditions | how to read | measurement | value |
| --- | --- | --- | --- | --- | --- | --- | --- |
| CC[C@H](C)[C@H](NC(=O)[C@H](CCC(=O)O)NC(=O)[C@H](CO)NC(=O)[C@@H](NC(=O)[C@@H](N)CO)C(C)C)C(=O)N[C@@H](CCC(N)=O)C(=O)N[C@@H](CC(C)C)C(=O)N[C@@H](CCSC)C(=O)N[C@@H](Cc1cnc[nH]1)C(=O)N[C@@H](CC(N)=O)C(=O)N[C@@H](CC(C)C)C(=O)NCC(=O)N[C@@H](CCCCN)C(=O)N[C@@H](Cc1cnc[nH]1)C(=O)N[C@@H](CC(C)C)C(=O)N[C@@H](CC(N)=O)C(=O)N[C@@H](CO)C(=O)N[C@@H](CCSC)C(=O)N[C@@H](CCC(=O)O)C(=O)N[C@@H](CCCN=C(N)N)C(=O)N[C@H](C(=O)N[C@@H](CCC(=O)O)C(=O)N[C@@H](Cc1c[nH]c2ccccc12)C(=O)N[C@@H](CC(C)C)C(=O)N[C@@H](CCCN=C(N)N)C(=O)N[C@@H](CCCCN)C(=O)N[C@@H](CCCCN)C(=O)N[C@@H](CC(C)C)C(=O)N[C@@H](CCC(N)=O)C(=O)N[C@@H](CC(=O)O)C(=O)N[C@H](C(=O)N[C@@H](Cc1cnc[nH]1)C(=O)N[C@@H](CC(N)=O)C(=O)N[C@@H](Cc1ccccc1)C(=O)O)C(C)C)C(C)C | Chymotrypsinogen A, activated (chymotrypsin) (Bos taurus, UniProt P00766) | substrate, HPLC-UV | – | 10 min, pH 6.5, 37 °C, without trypsin inhibitor | – | remaining intact compound | 0% |
| Cn1c(=O)c2c(ncn2C)n(C)c1=O | Cytochrome P450 1A2 (CYP1A2, Homo sapiens, UniProt P05177) | – | human, plasma | oral, 200 mg, geometric LS mean, together with: EDP-305 10 mg | – | AUC(0-inf) | 61700 ng·h/mL |
| O=c1ccc2ccccc2o1 | CYP2A6 human | 7-hydroxylation, substrate | human liver microsomes | CYP2A6 added 54 pmol/mg, ratio 0.125 | – | Km | 1.27 ± 0.25 µM |
| CN(C)CCCN1c2ccccc2CCc2ccccc21 | alpha-1-acid glycoprotein (human) | isothermal titration calorimetry | – | pH 7.4, 30 °C, heterogeneous AGP preparation | – | Kd | 69.9 µM |
| CCCCC/C=C\C/C=C\C/C=C\C/C=C\CCCC(=O)O | cytochrome P450 enzymes | M1 formation, inhibitor | pooled human intestinal microsomes | 500 µM, 5 min, pH 7.4, substrate named only as label, together with: 3 µM substrate | – | inhibition | 75% |
| Cc1coc2c1CC[C@@H](C)C2 | Cytochrome P450 2A6 (CYP2A6, Homo sapiens, UniProt P11509) | inactivator | – | 5 µM, 0 min, pH 7.4, 30 °C, together with: NADPH, semicarbazide 10 mM | – | remaining activity | 104 ± 3% |
| O=C1Nc2c(O)cc(Cl)cc2[C@@](C#CC2CC2)(C(F)(F)F)O1 | UGT | – | human cirrhosis | – | baseline: healthy | glucuronide metabolic ratio | increased |
| CC(CN(C)C)CN1c2ccccc2CCc2ccccc21 (stereo not shown) | alpha-1-acid glycoprotein (human) | isothermal titration calorimetry | – | pH 7.4, 30 °C, heterogeneous AGP preparation | – | Kd | 404 µM |
| O=C1Nc2c(O)cc(Cl)cc2[C@@](C#CC2CC2)(C(F)(F)F)O1 | CYP2B6 | substrate | – | product formation, recombinant | – | Km | 3.6 ± 1.7 µM |
| O=C1Nc2ccc(Cl)cc2[C@@](C#CC2CC2)(C(F)(F)F)O1 | CYP2B6 | enzyme activity, inhibitor, measured: 4-hydroxylation | pooled human liver microsomes | 10 µM, pH 7.4, together with: bupropion 50 µM | – | inhibition | 90% |
| CC1=N[C@]2(C(=O)CO)[C@@H](C[C@H]3[C@@H]4C[C@@H](O)C5=CC(=O)C=C[C@]5(C)[C@H]4[C@@H](O)C[C@@]32C)O1 | CYP2B6 | – | pooled human liver microsomes | 30 min preincubation, together with: NADPH | – | IC50 | > 50 µM |
| B1 (UGT1A9) | COc1ccc(-c2oc3cc(O)cc(O)c3c(=O)c2OC)cc1O | steady-state kinetics | – | pH 7.4, 37 °C | – | Vmax | 0.00749 µmol/min/mg |
| CC(C)N(CCC(C(N)=O)(c1ccccc1)c1ccccn1)C(C)C (stereo not shown) | alpha-1-acid glycoprotein (human) | isothermal titration calorimetry | – | pH 7.4, 30 °C, heterogeneous AGP preparation | – | Kd | 29.6 µM |
| Cc1ccc(Nc2nccc(N(C)c3ccc4c(C)n(C)nc4c3)n2)cc1S(N)(=O)=O | Broad substrate specificity ATP-binding cassette transporter ABCG2 | bidirectional transport | MDCK-Bcrp1 (murine Bcrp1) | 5 µM, 240 min, together with: erlotinib | – | efflux ratio | 1.7 |
| O=C(O)c1cc(/N=N/c2ccc(S(=O)(=O)Nc3ccccn3)cc2)ccc1O | Broad substrate specificity ATP-binding cassette transporter ABCG2 | – | FVB mouse, plasma | oral, 20 mg/kg | – | AUC | 2170 ng·h/mL |
| CC[C@H](C)[C@H](NC(=O)CN)C(=O)N[C@@H](CCCCN)C(=O)N[C@@H](CCCCN)C(=O)N[C@@H](Cc1ccccc1)C(=O)N[C@@H](CC(C)C)C(=O)N[C@@H](CCCCN)C(=O)N[C@]1(C)CCCCCCC=CCCC[C@@](C)(C(=O)N[C@@H](Cc2ccccc2)C(=O)N[C@@H](CCCCN)C(N)=O)NC(=O)[C@H](CCCCN)NC(=O)[C@H](C(C)C)NC(=O)[C@H](Cc2ccccc2)NC(=O)[C@H](CCCCN)NC(=O)[C@H](CCCCN)NC(=O)[C@H](C)NC1=O | Trypsin (Sus scrofa, UniProt P00761) | UPLC | NH4HCO3 buffer 50 mM | concentration not given, 24 h, pH 7.8, 37 °C, together with: Trypsin 0.2 U/mL | – | remaining compound | 70 to 80% |
| c1n[nH]c2c1CCCC2 | CYP2E1 (Oryctolagus cuniculus, UniProt P08682) | spectral titration | – | pH 7.4, 25 °C, first catalytic site | – | Kd | 0.023 µM |
| (+)-α-pinene | CYP2B6 | enzyme activity, inhibitor, Vivid fluorescent | – | – | – | IC50 | 292 µM |
| Cc1cccc(C)c1OCC(=O)N[C@@H](Cc1ccccc1)[C@@H](O)C[C@H](Cc1ccccc1)NC(=O)[C@H](C(C)C)N1CCCNC1=O | ATP-binding cassette sub-family C member 2 (ABCC2, Homo sapiens, UniProt Q92887) | – | MDCKII cells expressing target | 25 µM, 3 h, together with: MK571 75 µM | – | Papp A-B | 3.1 ± 0.2 ×10⁻⁶ cm/s |

A few entries again:
| Molecule | tested on | assay | system | conditions | how to read | measurement | value |
| --- | --- | --- | --- | --- | --- | --- | --- |
| O=C1Nc2c(O)cc(Cl)cc2[C@@](C#CC2CC2)(C(F)(F)F)O1 | CYP2B6 | substrate | – | product formation, recombinant | – | Km | 3.6 ± 1.7 µM |
